Measurements of several laboratories.
Every numbered part comes from another study and shows a few of its results, in no order. ± marks the error that the study gave.
Chain of UniProt Q86U86 (whole entry, unmodified, looked up): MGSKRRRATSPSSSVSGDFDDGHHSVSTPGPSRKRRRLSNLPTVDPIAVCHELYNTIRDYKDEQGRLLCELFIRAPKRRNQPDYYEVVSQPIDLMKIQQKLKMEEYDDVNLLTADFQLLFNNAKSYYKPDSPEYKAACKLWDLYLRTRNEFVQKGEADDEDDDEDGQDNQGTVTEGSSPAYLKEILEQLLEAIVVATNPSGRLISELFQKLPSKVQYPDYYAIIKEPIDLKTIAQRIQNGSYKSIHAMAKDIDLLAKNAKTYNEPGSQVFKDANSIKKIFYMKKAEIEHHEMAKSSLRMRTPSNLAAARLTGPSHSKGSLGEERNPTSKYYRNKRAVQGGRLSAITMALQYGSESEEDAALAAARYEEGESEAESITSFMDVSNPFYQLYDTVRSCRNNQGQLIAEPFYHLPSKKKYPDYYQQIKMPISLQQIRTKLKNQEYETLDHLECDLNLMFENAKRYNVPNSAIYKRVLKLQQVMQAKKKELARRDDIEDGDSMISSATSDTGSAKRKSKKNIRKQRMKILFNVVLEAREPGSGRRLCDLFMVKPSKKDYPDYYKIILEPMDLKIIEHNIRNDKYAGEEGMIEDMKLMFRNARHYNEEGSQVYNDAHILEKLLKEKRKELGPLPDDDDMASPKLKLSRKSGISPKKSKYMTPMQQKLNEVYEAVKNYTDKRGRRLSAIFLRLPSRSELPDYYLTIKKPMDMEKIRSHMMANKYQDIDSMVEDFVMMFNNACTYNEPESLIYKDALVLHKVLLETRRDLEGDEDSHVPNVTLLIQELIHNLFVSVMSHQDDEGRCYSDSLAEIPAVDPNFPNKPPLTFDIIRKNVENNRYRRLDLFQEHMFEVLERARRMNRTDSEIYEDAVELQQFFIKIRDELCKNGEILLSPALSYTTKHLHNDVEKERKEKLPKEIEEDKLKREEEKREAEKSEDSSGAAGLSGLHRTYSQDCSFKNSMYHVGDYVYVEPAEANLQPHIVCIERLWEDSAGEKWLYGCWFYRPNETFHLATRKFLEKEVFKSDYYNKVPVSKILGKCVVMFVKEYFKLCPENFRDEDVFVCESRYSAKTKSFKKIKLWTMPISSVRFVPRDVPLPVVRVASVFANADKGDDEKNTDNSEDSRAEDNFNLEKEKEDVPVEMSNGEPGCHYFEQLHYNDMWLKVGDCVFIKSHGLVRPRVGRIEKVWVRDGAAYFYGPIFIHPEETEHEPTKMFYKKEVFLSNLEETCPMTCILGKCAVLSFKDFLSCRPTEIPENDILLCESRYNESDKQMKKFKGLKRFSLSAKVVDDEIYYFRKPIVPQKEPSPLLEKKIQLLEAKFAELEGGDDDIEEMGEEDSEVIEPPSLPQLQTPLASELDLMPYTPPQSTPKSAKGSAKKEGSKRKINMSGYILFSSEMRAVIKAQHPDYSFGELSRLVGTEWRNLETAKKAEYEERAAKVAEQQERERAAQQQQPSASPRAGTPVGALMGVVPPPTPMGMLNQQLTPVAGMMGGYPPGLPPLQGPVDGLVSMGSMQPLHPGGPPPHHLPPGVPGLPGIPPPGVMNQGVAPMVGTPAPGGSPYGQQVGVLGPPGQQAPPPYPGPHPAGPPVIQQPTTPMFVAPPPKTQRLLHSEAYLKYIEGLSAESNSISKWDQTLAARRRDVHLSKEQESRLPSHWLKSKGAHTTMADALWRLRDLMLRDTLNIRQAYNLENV
Chain of UniProt P34914 (whole entry, looked up): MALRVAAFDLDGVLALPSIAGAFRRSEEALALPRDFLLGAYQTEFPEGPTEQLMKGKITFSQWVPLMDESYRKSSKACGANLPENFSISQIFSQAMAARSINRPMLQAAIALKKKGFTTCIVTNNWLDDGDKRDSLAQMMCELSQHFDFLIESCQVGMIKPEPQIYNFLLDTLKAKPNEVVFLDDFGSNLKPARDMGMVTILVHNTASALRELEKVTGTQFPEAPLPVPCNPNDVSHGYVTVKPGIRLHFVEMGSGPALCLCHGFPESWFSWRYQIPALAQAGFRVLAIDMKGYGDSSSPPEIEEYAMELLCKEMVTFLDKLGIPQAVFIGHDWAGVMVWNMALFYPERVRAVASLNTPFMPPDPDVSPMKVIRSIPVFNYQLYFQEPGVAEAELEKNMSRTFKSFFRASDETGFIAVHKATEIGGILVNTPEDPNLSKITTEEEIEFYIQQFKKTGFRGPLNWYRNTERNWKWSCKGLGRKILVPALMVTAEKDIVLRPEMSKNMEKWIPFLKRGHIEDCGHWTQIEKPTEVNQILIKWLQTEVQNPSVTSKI

Series 1
SMILES: Cc1cc(OCc2nnc(SC3CCCC3)n2-c2cccnc2)ccc1-c1ccc(S(C)(=O)=O)cc1
Quantity: CC50
cell line = HT-29; value = > 100 µM
cell line = NCI-H322M; value = > 100 µM
cell line = KM12; value = 9.4 µM

Other studies, line by line
SMILES = N#Cc1ccc(-c2csc(CNC(=O)C34CC(CN(C(=O)COCCF)C3)C4)n2)cc1; sample = plasma human; quantity = unbound fraction; value = 0.14 to 0.15
SMILES = Cc1ccc(S(=O)(=O)Nc2c(N3CCC(NC(=O)Nc4ccc(F)c(C(F)(F)F)c4)CC3)c(=O)c2=O)cc1; tested on = Ephx2 (Mus musculus, UniProt P34914); quantity = IC50; value = 4.42 ± 0.541 µM
SMILES = CC[C@@H]1C(=O)N(C)c2cnc(Nc3ccc(C(=O)NC4CCN(C)CC4)cc3OC)nc2N1C1CCCC1; tested on = Protein polybromo-1, BD5 (PBRM1, Homo sapiens, UniProt Q86U86); effect on = thermal stabilisation; method = thermal shift; concentration = 10 µM; quantity = ΔTm; value = 0.04 ± 0.1 °C

Repeated from above (other studies, line by line):
SMILES = Cc1ccc(S(=O)(=O)Nc2c(N3CCC(NC(=O)Nc4ccc(F)c(C(F)(F)F)c4)CC3)c(=O)c2=O)cc1; tested on = Ephx2 (Mus musculus, UniProt P34914); quantity = IC50; value = 4.42 ± 0.541 µM
